# Measured values collected from several papers.
# Numbered parts are unrelated; each lists some results of a single study. Changes are numbered by the printed parent chain.

# Block 1 — technique: RNA Bind-n-Seq; form: RNA; sample: in vitro; concentration: 365 nM; relative to: no-protein control; direction: higher = stronger binding
# Target: RNA binding protein fox-1 homolog 2, RRM domain, GST-SBP tag (RBFOX2, Homo sapiens, UniProt O43251-10, residues 100-194)
# Notes: natural RNA segment, single round, ends assumed
# Constant ends, left off below: GGGAGUUCUACAGUCCGACGAUC … UGGAAUUCUCGGGUGCCAA
# Residues (chain): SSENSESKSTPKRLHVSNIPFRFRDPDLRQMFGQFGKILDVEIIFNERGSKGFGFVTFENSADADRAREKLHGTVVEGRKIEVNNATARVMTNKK
Sequence,RBNS enrichment (R)
AUCCAGAUGUGAGCCCAGCCAGGGUCCUAUGGUUCCAAAUCUGAAGAAAAGGUUUUUCACACACUCCUUGCUUUCUGCUAAGAUAAGAAAGGCGUCACUCUGCCAGAGUG,0.255
CCUUUGCAUCUCUGCUCUUCACUCCUGGGGGGCAGCUGAGCUCCCCGCGUGCUGUGUCACUGCUUUGUUCCAGACACAAACCAGCACGUCUAGGGCCCAGCCCCUCCCCC,0.797
UUCUACAGAAUAGGUCAGAUCUUGGCCUCCCAAACCCCUUAUUUUUAAAAUACUUUGCGCCUUGCUUUGAUAAUUUGUAUUAUGUAUCCAAACUGAAAUUAUCUGCUUUC,1.02
UCUCUCUUGUCACAUGGAAUCUACAUGUGUUUGAACUAUUGCUUUAGGGUUUAAAAUAGGGGAGCCUGUGGUGGCCUGGUGCACAGGGCUAGAACGAGAGUGCCUCCCCU,0.903
UCCACCAGAGCUCCUGCCUGCCAGGACUGGACCAGAGCAGCCAGGCUGGGGCCCCUCUGUCUCAACCCGCAGACCCUUGACUGAAUGAGAGAGGCCAGAGGAUGCUCCCC,0.413
UCUUCAUCACCACUGUAGAUUUUGCUGCAUGUGCAGGUCCUCUAUUUUUAAUUGCUGUUUUCGUUGCUGCAGUACUUUACAAACUUCUAGUUCGUUGAGACUUAGUGACC,7.33
GGACAAGGAAGACAUUAUACUAGUUGAGGCUACAGAAACUCACAUUUUGCUAGAGCUCAAGUAAUAGAAACUUAGUUUCAGAAUCCUGAAUCCAACAUCUAUUUGGAAUG,0.225
CAUCUUAUUUGAGAUGGGGGUGGGAACGAAUUAAAAUAUGAUAGAGAACUAUAUGCAGAUUUUAAAAUCUAGUCAGUACUAGCAUCUAUAAAGGGCUUUUCUGAAAUUUA,0.537
CAUCUCCAAAAGUUUGUCUUUGAUUUUUUCCAAGCCCUUAGCCCCAUAAGCUUUGAAUCCUGUAGUUACAGUGGCAUAAAGGACUGACAAAACCUGGAUAAGGAAAAACC,0.367
CCUUUGGUUGUAUGAUUUUCUUCUUUUUUAAUGACUCCUGGAAGCAGUGCCCCUUCAGAGCUGGCUGGGAGCUUGGCUCAGCCACCUCUUAGGGUGCCUGCCUCUGCCAU,0.725
AUCAUACACUAAAGGAGAAUAUUUGGAGUUAGAUGAGCCUGUCACACAAAGUGAAAGUGGACCCUCCAGAAAUUUUAGGAAUUGCCACAAAGAUUGAUGAUAGAUGAAUA,0.653
GGGUUUCCUUUCAUAUUCUCCUGGCCAACUCCAGAGUGGCCUCCUAACCCAGCAGGCCCACCCCUCUGGGAGUCGUUGGUCUCCACCAGUUUUGUUAGGCUUUGAGUGUC,0.305

# Block 2 — technique: RNA Bind-n-Seq; form: RNA; sample: in vitro; concentration: 1 µM; notes: whole 134-nt RNA, ends assumed; with: 150 mM KCl; relative to: input library; direction: higher = stronger binding
# Target: Ras GTPase-activating protein-binding protein 1, RRM domain (G3BP1, Homo sapiens, UniProt Q13283)
# Chain of UniProt Q13283 (whole entry, looked up): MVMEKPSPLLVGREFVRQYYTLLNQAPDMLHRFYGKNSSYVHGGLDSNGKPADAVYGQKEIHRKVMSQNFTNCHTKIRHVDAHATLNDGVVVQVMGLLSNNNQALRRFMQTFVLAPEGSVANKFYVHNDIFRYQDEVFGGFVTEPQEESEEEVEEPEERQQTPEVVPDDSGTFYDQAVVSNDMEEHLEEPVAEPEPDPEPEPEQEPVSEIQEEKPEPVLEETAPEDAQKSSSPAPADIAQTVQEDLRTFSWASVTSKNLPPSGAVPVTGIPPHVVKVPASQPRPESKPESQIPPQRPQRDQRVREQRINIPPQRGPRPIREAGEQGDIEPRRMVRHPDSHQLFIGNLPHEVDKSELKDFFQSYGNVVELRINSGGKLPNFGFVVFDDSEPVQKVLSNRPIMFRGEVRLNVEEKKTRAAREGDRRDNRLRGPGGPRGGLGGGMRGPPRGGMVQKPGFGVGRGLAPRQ
# Constant ends, left off below: GGGAGUUCUACAGUCCGACGAUC … UGGAAUUCUCGGGUGUCAAGG
Sequence,log2 enrichment
CAAGUCCUGUGCUACACAUCGUAUGUACCGAAUCGGGGAAAGGAAAGGAAAGGGGAAAGUAUUAUGUUACGCCGUUCGGAUCUGCACUUC,-0.264
UGGGAGGUGGAUUUUGUUUAUUUUUUUAGCUCAUUUCCAGGGGUGGGAAUUUUUUUUUCAUAUGUGUCAUGAAUAAAGUUGUUUUUGAAA,2.73
GCAGGAAGUAAAAACAAAUGGAAAUGCUUCGGAUAGUGGCAGGGGUGGGGGUUUCUAAGGAAAGGGUGGGAUGGGAGUGGGUAAAGAGUU,0.813
CCUGUGCUACACAUCGUAUGUACCGAAUCGGGGAAAAAGGGGAAAAAAAGGGGUUUGGGGAAAGUAUUAUGUUACGCCGUUCGGAUCUGC,0.587
GCAGGAAGUAAAAACAAAUGGAAAUGCUUCGGAUAGUGGCUGGGGUGGGGGUUGCUAAGGAAAGGGUGGGAUGGGAGUGGGUAAAGAGUU,0.745
CAAGUCCUGUGCUACACAUCGUAUGUACCGAAUCAAACCCAAAUUUAAACCCAAAAAAGUAUUAUGUUACGCCGUUCGGAUCUGCACUUC,-0.216
UGGCCCUGGUGGCAUGCGGGGAGGAAGAGGUGGCCUCAUGGAUCGUGGUGGUCCCGGUGGAAUGUUCAGAGAUGGCCGUGGUGGAGACAG,1.82
CACAGACAACACGCACCAAAACAGACACAGAGGGAAGGGGUUGGGAUGGGGACAGGGUGCACAGCAGGGCGGGGUAGGACCCCAGCCCCU,-0.0446
CACAGACAACACGCACCCACACAGACACAGAGGGAAGGGGUUGGGAUAAAGACAGGGUGCACAGCAGGGCGGGGUAGGACCCCAGCCCCU,0.0605
UUCCCUGGUGUGAUUCCGUCCUGCGCGGUUGUUCUCUGGAGCAGCGUUCUUUUAUCUCCGUCCGCCUUCUCUCCUACCUAAGUGCGUGCC,0.00242

# Block 3 — technique: protein-binding microarray; form: double-stranded DNA, one strand shown; sample: in vitro; concentration: 250 nM; notes: 60-bp whole probe; with: salmon DNA 0.4 mg/ml; relative to: random background probes; direction: higher = stronger binding; constant ends, left off below: GCCTAGCAC … GTCTTGATTCGCTTGACGCTGCTG
# Target: Interferon regulatory factor 7, full length, phosphomimetic (IRF7, Homo sapiens, UniProt Q92985, residues 1-503, S101K/S471D/S472D/S475D/S476D/S477D/S483D/S484D/S487D)
# Target sequence (chain): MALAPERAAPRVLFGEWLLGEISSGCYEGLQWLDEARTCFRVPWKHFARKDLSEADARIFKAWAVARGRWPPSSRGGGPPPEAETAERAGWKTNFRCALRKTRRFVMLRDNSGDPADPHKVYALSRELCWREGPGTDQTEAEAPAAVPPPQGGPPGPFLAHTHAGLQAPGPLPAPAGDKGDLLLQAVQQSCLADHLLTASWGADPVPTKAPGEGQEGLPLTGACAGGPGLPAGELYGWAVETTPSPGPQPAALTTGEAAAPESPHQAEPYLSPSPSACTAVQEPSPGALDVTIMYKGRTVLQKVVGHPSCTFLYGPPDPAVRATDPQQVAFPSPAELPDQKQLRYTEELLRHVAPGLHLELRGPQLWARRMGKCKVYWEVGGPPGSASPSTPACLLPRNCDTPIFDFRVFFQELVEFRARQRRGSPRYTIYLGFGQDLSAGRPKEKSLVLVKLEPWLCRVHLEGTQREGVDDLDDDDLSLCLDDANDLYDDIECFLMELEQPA
Sequence,log fluorescence
TTAGGACTGGGTCTCGGCTAGTGCTAG,-0.0723 z-score
TTAGAAATGAGTATCGATTAGTGCTAG,0.811 z-score
TCATCTTTCACTGCTCCCACTGTGCTA,0.815 z-score
GATGGTTTCCTACTGCTGACGTGCTAG,1.33 z-score
TTAGTACTGGGGACTGGATTAGTGCTA,-0.321 z-score
TTAGGACTGGGTCTCGGTAAGTGCTAG,0.224 z-score
TTAGTACTGGGTTTCGGTTAGTGCTAG,7.06 z-score
GACGGTTTGGGTATCGGGACGTGCTAG,0.0588 z-score
GACGGTCTCGGTATCGGGAGGTGCTAG,1.71 z-score
TTAGGTTTACTACTGCTTTAGTGCTAG,-0.31 z-score
GACGGACTGCTTCTCCTCACGTGCTAG,0.127 z-score
TCAATTTTTTTTATTTAACTGTGCTAG,0.672 z-score
TTGTGTGTGTGTTTGTGTGTGTGCTAG,-0.561 z-score
TTAGGCATCGACTATCGGTTAGTGCTA,-0.469 z-score
GACGGACTGCTACTGCCGACGTGCTAG,-0.945 z-score
GACGGACTGATTTTCCTGACGTGCTAG,0.0831 z-score
GACGGACTGGGTATGGGGACGTGCTAG,-0.372 z-score
TCAGGTATCGGGACTGGGTTAGTGCTA,0.127 z-score
GACGGTCTCCTACTACTGACGTGCTAG,-0.334 z-score
GACGGACTGGGTTTCGGCACGTGCTAG,0.182 z-score

# Block 4 — target: CCNB2, cyclin fold, Cln2 fusion (human); technique: yeast growth competition, sequencing; sample: yeast; notes: weak parent motif; relative to: not given; direction: higher = stronger binding
# Parent: SAMHD1 docking peptide (human); ASKSRVQLFKDDP; partner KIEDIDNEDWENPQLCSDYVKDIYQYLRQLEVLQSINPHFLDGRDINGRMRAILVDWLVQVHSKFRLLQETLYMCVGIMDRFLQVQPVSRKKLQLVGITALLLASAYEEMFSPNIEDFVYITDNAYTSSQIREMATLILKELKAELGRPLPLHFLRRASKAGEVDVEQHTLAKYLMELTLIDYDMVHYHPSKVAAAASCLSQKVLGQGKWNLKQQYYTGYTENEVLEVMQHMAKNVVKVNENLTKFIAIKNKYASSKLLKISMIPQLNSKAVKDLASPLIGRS
Substitution,normalised enrichment score
ASKSRVQLFKDVP [D12V],0.596
AMKSRVQLFKDDP [S2M],0.0915
ASKSRVQLPKDDP [F9P],0.306
AIKSRVQLFKDDP [S2I],0.666
ASKSRRQLFKDDP [V6R],0.636
ASKSRVQGFKDDP [L8G],0.391
ASKSRVQWFKDDP [L8W],0.175
ASYSRVQLFKDDP [K3Y],0.196
ASKSDVQLFKDDP [R5D],-0.503
ASKSRLQLFKDDP [V6L],0.175
ASKSRVSLFKDDP [Q7S],0.0381
ASKSRVQLKKDDP [F9K],0.209
ANKSRVQLFKDDP [S2N],0.364
ASKSRVQLFKDHP [D12H],0.209
ASISRVQLFKDDP [K3I],0.105
ALKSRVQLFKDDP [S2L],0.0702
ASKSRVQLFKLDP [D11L],-0.13
ASKSRVQLFKDMP [D12M],0.238
ASKSRVQLFKDKP [D12K],0.335
ASKSRVQLFKDTP [D12T],0.133
ASKSRVQLFKDSP [D12S],0.349
ASKSRVQLFKPDP [D11P],0.68
ASKSRVQLFADDP [K10A],0.0554
ASKSQVQLFKDDP [R5Q],-0.276
ASCSRVQLFKDDP [K3C],0.069

# Excerpt of the above (block 3):
Sequence,log fluorescence
GATGGTTTCCTACTGCTGACGTGCTAG,1.33 z-score
TTAGTACTGGGGACTGGATTAGTGCTA,-0.321 z-score
TTAGGACTGGGTCTCGGTAAGTGCTAG,0.224 z-score
TTAGTACTGGGTTTCGGTTAGTGCTAG,7.06 z-score
GACGGTTTGGGTATCGGGACGTGCTAG,0.0588 z-score
